Results collected from several papers.
Each numbered part is a random draw from the data of one study; scales do not carry over between parts. Substitutions count along the parent as printed.

Series 1
Target: RNA binding protein fox-1 homolog 2, RRM domain, GST-SBP tag (RBFOX2, Homo sapiens, UniProt O43251-10, residues 100-194)
Technique: RNA Bind-n-Seq
Form: RNA
Sample: in vitro
Concentration: 365 nM
Notes: natural RNA segment, single round, ends assumed
Reference: no-protein control
Reading: higher = stronger binding
Shared flanks, not repeated: GGGAGUUCUACAGUCCGACGAUC … UGGAAUUCUCGGGUGCCAA
Residues (chain): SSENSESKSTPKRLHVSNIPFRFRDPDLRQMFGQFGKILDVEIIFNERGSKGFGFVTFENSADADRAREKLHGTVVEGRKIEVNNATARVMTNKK
Under “RBNS enrichment (R)”, `UGCAGUGUGUCAUUUGAAAAGAGAUUUGAAGAACUGACAGCUUAAAGCCCAAGCGGGAAACCCGCCCGGGAACUGUUCGCAGUUGACAACAAACUCUGACGCCCUCUGUU` is recorded as 0.331.
`UCUUGGGACUGGAAGAUAUGAUUCCCUUUCCAAUCAUCCCUUCUCUCUCCUGUCUAUACAUACACACCUACUGAAUAGAAGCCUAGCUGACAGUCUCUGAAUAGUGGUUU`: “RBNS enrichment (R)” 0.419.
For `GUUCCUUAGCUGCACCAGGCCCGAAGCUGUUCCCAUGCUUGAGCUUCCAUGGGGAGGAUGCUGAGUGAGCAGUUUCCUACCCCGUGGAUCUAGCAAGCCAUGGAGACAGG`, “RBNS enrichment (R)” read 0.601.
`UGCACUGACAUCCAGCACCUGGACAUCUCCCCUGGUGUCAGCCCACUGGCUCCGGGUCUACAUGGUGGGAGGAUCAGGAUGCUAAUGUUUCCCCUCUUUGGUUCUCAAAU` — result for “RBNS enrichment (R)”: 0.514.
For `GUGCCUUGGGCCCUGAAGCCCCAUAUGUAGUAUAGAGCAAAGGUGGCUCCUGGUGAAGAGAGGGUGGAAAGGCCCUUCAGCCCCAGGGCCAUGUCUGGGUUCUCCAUGCC`, “RBNS enrichment (R)” read 0.408.
Under “RBNS enrichment (R)”, `GCUUAGCUGGACUUAGAUCUUCGGUGGCCUCAUGUAAACGUGGCAGCCAGCCUCUUCUAGAACCCUAGCCCAGGGACUGGAGCAGGAAAGGGACCUUCAAAGUGAAGACU` is recorded as 0.313.
For `UGGUCCCAUUAUUCUAGGGUCUUACUCUUUGUAUGAUGAAAAGAAUGUGUUAUGAAUCGGUGCUGUCAGCCCUGCUGUCAGACCUUCUUCCACAGCAAAUGAGAUGUAUG`, “RBNS enrichment (R)” read 0.286.
`GAGAACAGGGAGACAGUGUGUGGGGGUGGGACCUCAUCUGUGUGCCUGGUAUCCUGAGUUUUACAUGUAGAUGCAUUCGCCUAUUUGAUUCAGAAAAAUAAACUUUCCCA`: “RBNS enrichment (R)” 1.38.
For `GAUGGAGUGAUGUUGUGGGCACAAGGCAUCUGUCAGCUGCCUCCUUUAACAGCCAUGCCUUCUGGAAUCUGGAAGAGGACACCACUCCUGCAGUCACUGGGCAGCCACAU`, “RBNS enrichment (R)” read 0.41.
For `CAAUCACUAUUCUUAAGCACUUUGAAAAUAUUUCUAUGUAAAUUAUUGUAAACUUUUUCAAUGGUUGGGACAAUGGCAAUAGGACAAAACGGGUUACUAAGAUGAAAUUG`, “RBNS enrichment (R)” read 0.411.
Under “RBNS enrichment (R)”, `GAUCCUGCCCUCUCCAGCUGCUCCUUCAAAAGAUACAUCAAAAGAUAGAAACUCUGGGCUGGGCACAGUGGCUCACACACUUUGGGAGGCCAAGCGGGGGUGCAGAUCAC` is recorded as 0.346.
For `AAGUUAUCCCACUGGGUUUAAAAGCAUCUUGAAUGUAUAACCCUUCUGUAACCCAGGCUGGUCUUUGCUUUUACUGAACAUCCAAACGUUAUUUAUAUUUUAAUUUUAUG`, “RBNS enrichment (R)” read 1.06.

Series 2
Target: ABI1, truncated, D143A, DHFR fusion (Arabidopsis thaliana)
Technique: DHFR PCA, deep sequencing
Sample: yeast
Notes: methotrexate growth selection, single substitutions
With: (+)-ABA 200 µM
Reference: wild-type fitted maximum
Reading: higher = stronger binding
Parent: PYL1, truncated, DHFR fusion (Arabidopsis thaliana); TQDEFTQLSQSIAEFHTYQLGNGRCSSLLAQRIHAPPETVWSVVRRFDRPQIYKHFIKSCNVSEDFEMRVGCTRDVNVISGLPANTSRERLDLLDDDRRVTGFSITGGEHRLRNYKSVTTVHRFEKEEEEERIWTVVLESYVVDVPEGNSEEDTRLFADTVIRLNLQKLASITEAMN
`S104V`: “relative binding score” 60.4%.
`P36Q` — result for “relative binding score”: 87.7%.
`D159I` — result for “relative binding score”: -5.13%.
`Q51S`: “relative binding score” 79%.
`E14Q` — result for “relative binding score”: 100%.
For `K116N`, “relative binding score” read 80.8%.
Under “relative binding score”, `N177V` is recorded as 98.1%.
`S171T`: “relative binding score” 101%.
Under “relative binding score”, `D75S` is recorded as 102%.
`F124H` — result for “relative binding score”: 95.3%.
Under “relative binding score”, `E4K` is recorded as 87.1%.
For `G107K`, “relative binding score” read 66.4%.
`T106K` — result for “relative binding score”: 94.2%.
For `R88M`, “relative binding score” read 96.3%.
Under “relative binding score”, `D48R` is recorded as 47%.
`L112P`: “relative binding score” 6.77%.
`L28C`: “relative binding score” 87.9%.
`T119P` — result for “relative binding score”: -15.2%.
`A175G`: “relative binding score” 103%.
`K58Q`: “relative binding score” 104%.
`S150T`: “relative binding score” 98.8%.
Under “relative binding score”, `V136W` is recorded as 86.2%.
Under “relative binding score”, `R24M` is recorded as 92%.
`L94G`: “relative binding score” -4.31%.
`R111I` — result for “relative binding score”: 38.5%.

Series 3
Target: Interferon regulatory factor 5, full length, phosphomimetic (IRF5, Homo sapiens, UniProt Q13568-2, residues 1-514, S451D/S453D/S456D/S462D)
Technique: protein-binding microarray
Form: double-stranded DNA, one strand shown
Sample: in vitro
Concentration: 940 nM top
Notes: 60-bp whole probe
With: salmon DNA 0.4 mg/ml
Reference: random background probes
Reading: higher = stronger binding
Shared flanks, not repeated: GCCTAGCAC … GTCTTGATTCGCTTGACGCTGCTG
Under “fitted relative affinity”, `CCTCTTTTTTGTTCCACGCCGTGCTAG` is recorded as 1.53 z-score.
`CTATATTTGCTTCAGGTTTAGTGCTAG` — result for “fitted relative affinity”: 0.176 z-score.
`TTAGATCTCAGAATGGATTAGTGCTAG`: “fitted relative affinity” -0.152 z-score.
For `GACGATTCCGGGTATCGAGACGTGCTA`, “fitted relative affinity” read 1.3 z-score.
For `GACTGTCTCGGTCTCGGGACGTGCTAG`, “fitted relative affinity” read 3.72 z-score.
`TCAAGTCTTGTTTTACAACTGTGCTAG` — result for “fitted relative affinity”: 0.199 z-score.
For `TTAGGTATCGGGTTTCGGTAAGTGCTA`, “fitted relative affinity” read 7.91 z-score.
For `TCAACTTTCTATCTCTGACTGTGCTAG`, “fitted relative affinity” read 1.9 z-score.
`GACGAACTGAGATTGGAGACGTGCTAG` — result for “fitted relative affinity”: -0.554 z-score.
`GACGGTTTCGGTTTCGCGACGTGCTAG` — result for “fitted relative affinity”: 14.2 z-score.
Under “fitted relative affinity”, `GATTTTTTCTGCTTAGAGCTGTGCTAG` is recorded as 0.0395 z-score.
Under “fitted relative affinity”, `TTAGATATCAGACTGGATCAGTGCTAG` is recorded as -0.289 z-score.
`TTACGACTGGACTTTCGGTTAGTGCTA` — result for “fitted relative affinity”: 3.1 z-score.
For `GACGGTTTCCTTTTCCTGACGTGCTAG`, “fitted relative affinity” read 2.54 z-score.
For `TTAGGTCTCGGTGTCGGTTAGTGCTAG`, “fitted relative affinity” read 3.63 z-score.
`TCAGGTCACTCTCTGGGACTGTGCTAG`: “fitted relative affinity” -0.0522 z-score.
`TTAGGTTTCGGTTCCGGTTAGTGCTAG` — result for “fitted relative affinity”: 15.2 z-score.
For `TTAAGTTTCGACACTGGGTTAGTGCTA`, “fitted relative affinity” read 7.76 z-score.
`GACGGACTCCTTTTCCTGACGTGCTAG`: “fitted relative affinity” 0.335 z-score.
`GACGATTTAAGACTGGAGACGTGCTAG`: “fitted relative affinity” -0.303 z-score.
For `TTCCAAATGCCCTCTCCATACGTGCTA`, “fitted relative affinity” read 0.617 z-score.
`TCACTCCTATCTTATGATACTGTGCTA` — result for “fitted relative affinity”: 1.01 z-score.

Series 4
Target: CCNA2, cyclin fold, Cln2 fusion (human)
Technique: yeast growth competition, sequencing
Sample: yeast
Notes: strong parent motif
Reference: not given
Reading: higher = stronger binding
Parent: RB1 docking peptide (human); PKPLKKLRFDIEG
For `G13P`, “normalised enrichment score” read 2.69.
For `I11V`, “normalised enrichment score” read 1.19.
`L4K` — result for “normalised enrichment score”: 3.01.
`G13N` — result for “normalised enrichment score”: 0.346.
`L7Y`: “normalised enrichment score” 0.106.
For `E12L`, “normalised enrichment score” read 1.74.
For `G13Q`, “normalised enrichment score” read 2.18.
For `K2A`, “normalised enrichment score” read 1.11.
Under “normalised enrichment score”, `K6P` is recorded as -0.0846.
`E12Q`: “normalised enrichment score” 1.27.
`F9E` — result for “normalised enrichment score”: -0.429.
`K5E` — result for “normalised enrichment score”: -0.131.
For `K6A`, “normalised enrichment score” read 1.38.
`E12T`: “normalised enrichment score” 1.63.
`F9Y` — result for “normalised enrichment score”: 0.375.
For `K2C`, “normalised enrichment score” read 0.944.
Under “normalised enrichment score”, `K6N` is recorded as 0.383.
`K5R`: “normalised enrichment score” 1.61.
`L7P` — result for “normalised enrichment score”: 0.708.
`K2H`: “normalised enrichment score” 0.219.
For `P1Y`, “normalised enrichment score” read 1.
For `K2S`, “normalised enrichment score” read 1.05.
Under “normalised enrichment score”, `K5F` is recorded as -0.257.
For `I11E`, “normalised enrichment score” read 1.97.
`K5Y`: “normalised enrichment score” 0.833.

Series 5
Target: Sal-like protein 4, full length isoform A (SALL4, Homo sapiens, UniProt Q9UJQ4, residues 1-1053)
UniProt Q9UJQ4, sequence (whole entry, looked up): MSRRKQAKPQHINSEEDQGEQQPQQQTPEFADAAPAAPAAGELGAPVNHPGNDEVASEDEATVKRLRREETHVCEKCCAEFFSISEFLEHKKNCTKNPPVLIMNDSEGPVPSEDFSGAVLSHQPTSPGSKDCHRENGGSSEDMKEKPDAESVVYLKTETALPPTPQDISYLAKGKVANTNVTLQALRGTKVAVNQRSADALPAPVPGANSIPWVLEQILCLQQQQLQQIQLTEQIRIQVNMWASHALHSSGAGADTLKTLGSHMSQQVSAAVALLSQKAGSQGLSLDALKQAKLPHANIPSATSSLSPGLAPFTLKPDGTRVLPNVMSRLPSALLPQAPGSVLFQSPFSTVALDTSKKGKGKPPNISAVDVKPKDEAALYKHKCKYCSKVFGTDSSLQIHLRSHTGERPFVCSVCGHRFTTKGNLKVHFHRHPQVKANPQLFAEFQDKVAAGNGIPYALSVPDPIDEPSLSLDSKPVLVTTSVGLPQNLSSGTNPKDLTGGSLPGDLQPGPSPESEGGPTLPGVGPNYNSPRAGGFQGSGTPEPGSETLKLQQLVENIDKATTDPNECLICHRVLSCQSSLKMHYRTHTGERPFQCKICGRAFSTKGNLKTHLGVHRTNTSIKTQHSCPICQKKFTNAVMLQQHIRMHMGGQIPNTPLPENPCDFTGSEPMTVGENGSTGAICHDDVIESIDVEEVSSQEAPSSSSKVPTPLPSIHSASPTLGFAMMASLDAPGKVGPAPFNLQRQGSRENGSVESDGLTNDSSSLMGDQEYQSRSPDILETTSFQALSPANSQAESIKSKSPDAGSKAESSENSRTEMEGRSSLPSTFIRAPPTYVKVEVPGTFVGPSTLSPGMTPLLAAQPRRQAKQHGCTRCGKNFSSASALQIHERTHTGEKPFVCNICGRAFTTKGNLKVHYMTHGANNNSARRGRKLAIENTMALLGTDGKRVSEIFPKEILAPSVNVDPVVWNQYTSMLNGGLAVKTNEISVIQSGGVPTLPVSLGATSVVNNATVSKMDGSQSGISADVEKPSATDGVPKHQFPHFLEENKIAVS
Technique: universal PBM
Form: double-stranded DNA, one strand shown
Sample: in vitro
Concentration: 600 nM
Notes: 8-mer, flanks averaged, mean of replicates
Reading: higher = stronger binding
`ACGTAAGG` gave an E-score of 0.0498.
The E-score of `AAGCAGTA` is reported as 0.0345.
`AAGGACAG` has an E-score of -0.114.
`ATAAAGTA` gave an E-score of 0.37.
For `TCTTCTAA`, the E-score was 0.119.
`AAACTGTT` gave an E-score of 0.249.
`AGGCTACA` gave an E-score of 0.0242.
`CAGCCTCG` gave an E-score of -0.182.
For `GGCTGTAC`, the E-score was -0.261.
With `GTAGGAGA` the E-score was -0.081.
For `ACAAGTTG`, the E-score was 0.0894.
With `TGGGACCA` the E-score was -0.236.
`AAAGCTTC` has an E-score of 0.0423.
With `TAGGGGGA` the E-score was -0.178.
For `TGCCGCAA`, the E-score was 0.0564.
With `TAAGGCTA` the E-score was 0.0823.
With `AACACCGC` the E-score was -0.247.
For `AGGGTCAA`, the E-score was -0.0418.
`AAATTTAC` gave an E-score of 0.28.
With `GACCGGCA` the E-score was -0.302.
`ACGTATTA` gave an E-score of 0.319.
The E-score of `GCGCTAGA` is reported as -0.127.
With `ATCAGTGC` the E-score was -0.0288.

Some of these lines once more (series 2):
Under “relative binding score”, `D75S` is recorded as 102%.
`F124H` — result for “relative binding score”: 95.3%.
Under “relative binding score”, `E4K` is recorded as 87.1%.
For `G107K`, “relative binding score” read 66.4%.
`T106K` — result for “relative binding score”: 94.2%.
For `R88M`, “relative binding score” read 96.3%.
Under “relative binding score”, `D48R` is recorded as 47%.
`L112P`: “relative binding score” 6.77%.
`L28C`: “relative binding score” 87.9%.
`T119P` — result for “relative binding score”: -15.2%.
`A175G`: “relative binding score” 103%.
`K58Q`: “relative binding score” 104%.
`S150T`: “relative binding score” 98.8%.
Under “relative binding score”, `V136W` is recorded as 86.2%.
Under “relative binding score”, `R24M` is recorded as 92%.
`L94G`: “relative binding score” -4.31%.
`R111I` — result for “relative binding score”: 38.5%.
